Assay results of several laboratories.
± marks the error that the study gave.

SMILES = Cc1ccc(N(CCc2nnc(S)n2N)S(=O)(=O)c2ccccc2)cc1; assay = tail flick, radiant heat; test system = rat; conditions = 200 mg/kg; quantity = analgesic protection; value = 81%
SMILES = Cc1ncc([N+](=O)[O-])n1CCOCc1nnc(SCC(=O)c2ccc(O)cc2)o1; conditions = 50 µg/mL, 45 min; quantity = DPPH scavenging; value = 55.1 ± 0.42%
SMILES = CN(C)c1ccc(-c2oc3ccccc3c(=O)c2OCc2ccccc2)cc1; test system = diabetic rat; conditions = 7.5 mg/kg, 28 days, p-nitrophenyl β-glucoside induced; quantity = serum HDL cholesterol; value = 48 ± 1.99 mg/dL
SMILES = COc1ccc2c(c1)c(CC(=O)OCOC(C)=O)c(C)n2C(=O)c1ccc(Cl)cc1; assay = acetic acid writhing test; test system = BALB/c mouse; conditions = intraperitoneal, 20 mg/kg; how to read = baseline: negative control; quantity = analgesia; value = 67.5%
SMILES = CCCCCCCCCCCCCCCC(=O)N[C@@H](CCCCN)C(=O)N[C@@H](CCCCN)C(=O)N[C@@H](CO)C(=O)N[C@@H](CCCNC(=N)N)C(=O)N[C@@H](C)C(=O)N[C@@H](CC(C)C)C(=O)N[C@@H](Cc1ccccc1)C(N)=O; test system = guinea pig; conditions = intravenous infusion, 3 or 6 mg/kg, 15 min, with: ADP 20 µM; quantity = ex vivo platelet aggregation; value = no effect
SMILES = CCCC[C@H](NC(=O)[C@@H](NC(=O)[C@H](CC(=O)O)NC(=O)[C@H](CCC(N)=O)NC(=O)[C@H](CC(C)C)NC(=O)[C@H](CC(C)C)NC(=O)[C@H](CCCN)NC(=O)[C@H](CCCNC(=N)N)NC(=O)[C@H](C)NC(=O)[C@H](CO)NC(=O)[C@H](CC(C)C)NC(=O)[C@H](CCC(N)=O)NC(=O)[C@H](CC)NC(=O)[C@H](CC(C)C)NC(=O)[C@@H](NC(=O)[C@H](CCCN)NC(=O)[C@H](CCCNC(=N)N)NC(=O)[C@H](Cc1ccc(O)cc1)NC(=O)[C@H](CO)NC(=O)[C@H](CC(N)=O)NC(=O)[C@@H](NC(=O)[C@H](Cc1c(F)c(F)c(F)c(F)c1F)NC(=O)[C@@H](NC(=O)[C@H](C)NC(=O)[C@H](CC(=O)O)NC(=O)[C@@H](C)NC(=O)CCc1ccc(O)cc1)[C@@H](C)CC)[C@@H](C)O)C(C)C)[C@@H](C)CC)C(=O)N[C@@H](CO)C(=O)N[C@@H](CCCNC(=N)N)C(=O)NCCCC(N)=O; assay = GH release, ELISA; test system = male rat, anaesthetised, serum; conditions = intravenous, 1 µg/kg, 5 min; quantity = serum GH level; value = 1250 ± 185 ng/mL
SMILES = C=C(c1ccc(C(=O)O)c(F)c1)c1cc2c(cc1C)C(C)(C)C=CC2(C)C; assay = RNA sequencing, item: Cyp26b1 mRNA; test system = rat, brain; conditions = dose not given, 24 h, single dose; how to read = baseline: vehicle; quantity = log2 fold change; value = -0.09
SMILES = CC(=O)N[C@H](C(=O)N[C@H](C(=O)N[C@@H](CCCNC(=N)N)C(=O)N1Cc2ccccc2C[C@H]1C(=O)N[C@@H](Cc1ccccc1)C(N)=O)C1CCCCC1)C(C)C; assay = inhibitor; test system = HLA-DR4 (DRB1*04:01) transgenic mice; conditions = dose not given; quantity = antigen-specific cytokine response; value = no inhibition
SMILES = CC[C@@]1(c2cccc(C(F)(F)F)c2)C2=C(Nc3n[nH]cc31)[C@H](F)C(C)(C)CC2=O (single isomer, unassigned); assay = kinobead chemoproteomics; test system = rat, postnatal day 10, brain; conditions = 60 mg/kg, 3 h, target engagement above 70%, excluding GSK3α, of 251 kinases; quantity = number of off-target kinases; value = 6
SMILES = CCOP(=O)(CC(=O)Nc1ccc(S(=O)(=O)N(CC(N)=O)c2ccc(N(CC(N)=O)S(=O)(=O)c3ccc(OC)cc3)c3ccccc23)cc1)OCC; assay = Western blot; test system = APP/PS1 mice, hippocampus and frontal cortex; conditions = 40 mg/kg; how to read = baseline: nuclear over cytoplasmic Nrf2; quantity = nuclear to cytoplasmic Nrf2; value = increased
SMILES = CCOC(=O)Cc1csc(NC(=O)CCN2CCC(O)CC2)n1; conditions = 0.1 mM, 1 h; quantity = DPPH radical scavenging; value = 14%
SMILES = CCCCCCCOC(=O)Cc1c(C)n(C(=O)c2ccc(Cl)cc2)c2ccc(OC)cc12; assay = hot plate test; test system = BALB/c mice; conditions = 75 mg/kg, 90 min; quantity = latency of nociceptive response; value = 16.6 ± 1.13 s
SMILES = CCCC[C@H](NC(=O)[C@@H](NC(=O)[C@H](CC(=O)O)NC(=O)[C@H](CCC(N)=O)NC(=O)[C@H](CC(C)C)NC(=O)[C@H](CC(C)C)NC(=O)[C@H](CCCN)NC(=O)[C@H](CCCNC(=N)N)NC(=O)[C@H](C)NC(=O)[C@H](CO)NC(=O)[C@H](CC(C)C)NC(=O)[C@H](CCC(N)=O)NC(=O)[C@H](CC)NC(=O)[C@H](CC(C)C)NC(=O)[C@@H](NC(=O)[C@H](CCCN)NC(=O)[C@H](CCCNC(=N)N)NC(=O)[C@H](Cc1ccc(O)cc1)NC(=O)[C@H](CO)NC(=O)[C@H](CC(N)=O)NC(=O)[C@@H](NC(=O)[C@H](Cc1ccccc1)NC(=O)[C@@H](NC(=O)[C@H](C)NC(=O)[C@H](CC(=O)O)NC(=O)[C@@H](C)NC(=O)[C@H](Cc1ccc(O)cc1)NC)[C@@H](C)CC)[C@@H](C)O)C(C)C)[C@@H](C)CC)C(=O)N[C@@H](CC(=O)O)C(=O)N[C@@H](CCCNC(=N)N)C(=O)NCC; assay = GH release, ELISA; test system = male Sprague-Dawley rat, anaesthetised, serum; conditions = subcutaneous, 3 µg/kg, 30 min; quantity = serum GH level; value = 137 ± 17.5 ng/mL
SMILES = CCc1nnc(NS(=O)(=O)c2ccc(NC(=S)NC(=O)/C=C/c3ccc(F)cc3)cc2)s1; test system = NXS2 allograft, A/J mice, tumour; conditions = intraperitoneal, 20 mg/kg daily, 3 weeks; how to read = baseline: vehicle; quantity = IL-6 level; value = decreased
SMILES = Cc1ccc(-c2oc3ccccc3c(=O)c2OCc2ccccc2)cc1; test system = diabetic rat; conditions = 7.5 mg/kg, p-nitrophenyl β-glucoside induced; quantity = serum alkaline phosphatase; value = 192 ± 4.05 IU
SMILES = [2H]C([2H])([2H])C(c1cc2nnc(-c3cc(F)ccc3F)n2nc1OCc1ncnn1C)(C([2H])([2H])[2H])C([2H])([2H])[2H]; test system = amygdala-kindled Wistar rats; conditions = oral, 6 mg/kg, 2 h before stimulation, Racine scale, unit not given; how to read = baseline: baseline; quantity = seizure severity change; value = -3.2
SMILES = O=C(C=Cc1ccc(O)c(O)c1)OC1CC(O)(C(=O)O)CC(O)C1O (stereo not shown); assay = decreased; test system = Kunming mice, isoprenaline-induced myocardial infarction, serum; conditions = intravenous, 30 mg/kg daily for 7 days, day 7; how to read = baseline: model group; quantity = creatine kinase activity; value = decreased
SMILES = CN1CCC[C@]1(C)/C=C/S(=O)(=O)NC(=O)Nc1c2c(cc3c1CCC3)CCC2; assay = IL-1β release, ex vivo whole blood; test system = human, whole blood; conditions = oral, 100 mg single dose, 24 h, with: LPS and ATP; quantity = inhibition; value = > 90%
SMILES = C=CC(=O)N1C[C@H](C)N(c2nc(OC[C@@]34CCCN3C[C@H](F)C4)nc3c(F)c(-c4ccc(F)c5sc(N)c(C#N)c45)c(C(F)(F)F)cc23)C[C@H]1C; test system = MIA PaCa-2 Matrigel plug, mouse; conditions = oral, 3 mg/kg single dose, 6 h; quantity = pERK inhibition; value = 46%
SMILES = CCCCCCCCCCCCCCCC(=O)N[C@@H](CCC(=O)NCCCC[C@H](NC(=O)[C@H](CC(=O)O)NC(=O)[C@H](CO)NC(=O)[C@@H](NC(=O)[C@H](Cc1ccccc1)NC(=O)[C@@H](NC(=O)CNC(=O)[C@H](CCC(N)=O)NC(=O)[C@H](CO)NC(=O)[C@@H](N)Cc1c[nH]cn1)[C@@H](C)O)[C@@H](C)O)C(=O)N[C@@H](CO)C(=O)N[C@@H](CCC(=O)O)C(=O)N[C@@H](Cc1ccc(O)cc1)C(=O)N[C@@H](CC(C)C)C(=O)N[C@@H](CC(=O)O)C(=O)N[C@@H](CO)C(=O)N[C@@H](CCC(=O)O)C(=O)N[C@@H](CCCNC(=N)N)C(=O)N[C@@H](C)C(=O)N[C@@H](CCCNC(=N)N)C(=O)N[C@@H](CC(=O)O)C(=O)N[C@@H](Cc1ccccc1)C(=O)N[C@H](C(=O)N[C@@H](C)C(=O)N[C@@H](Cc1c[nH]c2ccccc12)C(=O)N[C@@H](CC(C)C)C(=O)N[C@@H](CCC(=O)O)C(=O)N[C@@H](C)C(=O)NCC(=O)NCC(=O)O)C(C)C)C(=O)O; test system = female cynomolgus monkey; conditions = subcutaneous, 16 nmol/kg/day for 8 weeks, day 57; how to read = baseline: starting body weight; quantity = body weight loss; value = 11%
SMILES = COc1cc(C(=O)OCCCN2CCCN(CCCOC(=O)c3cc(OC)c(OC)c(OCc4ccc([N+](=O)[O-])cc4)c3)CC2)cc(OC)c1OC; assay = acetone test; test system = db/db mouse; conditions = intrathecal, 30 nmol; quantity = cold hypersensitivity; value = inhibited
SMILES = COc1ccc(-c2oc3ccccc3c(=O)c2OCc2ccccc2)cc1; test system = diabetic rat; conditions = 5 mg/kg, 28 days, p-nitrophenyl β-glucoside induced; quantity = serum HDL cholesterol; value = 51.1 ± 2.01 mg/dL
SMILES = CCCOC(=O)Cc1c(C)n(C(=O)c2ccc(Cl)cc2)c2ccc(OC)cc12; assay = hot plate test; test system = BALB/c mice; conditions = 50 mg/kg, 60 min; quantity = latency of nociceptive response; value = 15.7 ± 0.7 s
SMILES = Clc1ccc2ccc3[n+](c2c1)[Ir-3]12([c]4ccccc4-3)([c]3ccccc3-c3ccc4ccc(Cl)cc4[n+]31)[n+]1ccccc1-c1cccc[n+]12.F[P-](F)(F)(F)(F)F; test system = BALB/c mice, 4T1 allograft; conditions = 1, 2, 4 mg/kg; how to read = baseline: untreated; quantity = lung metastasis incidence; value = decreased
SMILES = CC(C)[C@H](CO)Nc1nc(Nc2ccc(C(=O)NCCNS(=O)(=O)c3cccc4c(N(C)C)cccc34)c(Cl)c2)c2ncn(C(C)C)c2n1; test system = ND2-SmoA1 mice, medulloblastoma tumour; conditions = dose not given; quantity = nuclear cyclin D1-positive cells; value = 13.8 ± 4%
